Earlier results as cited in several papers.
Protocols differ between the studies behind these lines. ± gives the spread as reported.

With `CC(=O)O[C@@H]1[C@@H](OC(C)=O)C2=C(C(=O)C(O)=C(C(C)C)C2=O)[C@@]2(C)CCCC(C)(C)[C@H]12` the GI50 was 10 to 30 µM (MCF7; cell growth).
For `CNc1c(C)n(C)n(-c2ccccc2)c1=O`, protein level read “increased” (primary human hepatocytes; item: CYP3A4; concentration not given; relative to: untreated).
For `CCCCCCCCC1=C(CCCCCCCC(=O)O)C1`, viability read “decreased” (differentiated adipocytes; 100 or 200 µM).
For `Cc1cc(N2CCC(CO)(C3CC3)C2=O)cc(C(=O)NCc2cc(F)cc(-c3cnn(C)c3)c2)n1` (stereo not shown), the CC50 was 1.12 µM (ARPE-19; cytotoxicity).
For `Cc1c(N)c(=O)n(-c2ccccc2)n1C`, protein level read “increased” (primary human hepatocytes; item: CYP2B6; concentration not given; relative to: untreated).
For `O=C(OCc1cccc(O)c1O)c1ccc(O)c(CO)c1`, cytotoxicity read “not toxic” (cultured cells; concentration not given).
`CC(=O)O[C@H]1C2=C(C(=O)C(OC(=O)c3ccc(C)cc3)=C(C(C)C)C2=O)[C@@]2(C)CCCC(C)(C)[C@@H]2[C@@H]1O` has a GI50 of at most 5 µM (MCF7; cell growth).
With `O=S(=O)(c1ccc(-c2ccc3nccc(Nc4ccc(OCc5cccc(F)c5)cc4)c3c2)cc1)N1CCOCC1` the TC50 was over 20 µM (HepG2).
For `O=C(Cn1cc(CNC(=O)c2c3ccccc3nc3ccccc23)nn1)Nc1cccc(Br)c1`, the cytotoxicity was over 200 µM (MCF7; no toxicity up to value).
`O=C(NCc1ccc(F)cc1F)c1cn2c(c(O)c1=O)C(=O)N(CCCCCO)CC2` gave a CC50 of 150 ± 3.9 µM (HOS; ATP level, 50% ATP reduction).
The GI50 of `CC(C)C1=C(O)C(=O)C2=C(C1=O)[C@H](O)[C@@H](O)[C@H]1C(C)(C)CCC[C@]21C` is reported as 10 to 30 µM (MCR5; cell growth).
`COc1ccc(-c2cccc(S(=O)(=O)N[C@@H](Cc3cccc(C(=N)N)c3)C(=O)N3CCN(C(=O)NC4CCCCC4)CC3)c2)c(OC)c1` — result for “extracellular hydrogen peroxide”: “not detected” (HIEC human intestinal epithelial cells; concentration not given).
The GI50 of `CC(=O)O[C@H]1C2=C(C(=O)C(OC(=O)c3ccc([N+](=O)[O-])cc3)=C(C(C)C)C2=O)[C@@]2(C)CCCC(C)(C)[C@@H]2[C@@H]1O` is reported as 10 to 30 µM (MCF7; cell growth).
`Cn1c2cc([S+](C)[O-])sc2c2cnn(Cc3cccc(N)c3)c(=O)c21` (stereo not shown) — result for toxicity: “not toxic” (well-differentiated RPE cells; concentration not given).
Under cytotoxicity, `CC(=O)O[C@@H]1C[C@H]2C(C)(C)[C@H](O)CC[C@]2(C)[C@H]2CC[C@]34C[C@]3(CC[C@H]4[C@@H](C)C[C@@H](O)[C@H](O)C(C)(C)O)[C@@]21C` is recorded as “toxic” (KB; concentration not given).
`COCCN1CCn2cc(C(=O)NCc3ccc(F)cc3F)c(=O)c(O)c2C1=O` gave a CC50 of 138 ± 8.5 µM (HOS; ATP level, 50% ATP reduction).
The active concentration of `COc1ccc(Oc2ccc([C@@H](C)N(C)c3ncc4c(N)nc(N)nc4n3)cc2)cc1` is reported as 4 µM (primary mouse macrophages; cell growth).
With `COCCCn1ccn2cc(C(=O)NCc3ccc(F)cc3F)c(=O)c(O)c2c1=O` the CC50 was over 250 µM (HOS; ATP level, 50% ATP reduction).
For `N=S(=O)(c1ccccc1)N1CCCCC1` (stereo not shown), the efflux ratio was 0.59 (Caco-2; relative to: Papp B-A over Papp A-B).
`O=C(NCc1ccc(F)cc1F)c1cn2ccn(CCCCCO)c(=O)c2c(O)c1=O` has a CC50 of over 250 µM (HOS; ATP level, 50% ATP reduction).
`CCOC(=O)C(NC(=O)CN1C(=O)N/C(=C\c2ccc3c(c2)OCO3)C1=O)C(C)C` (stereo not shown) — result for cytotoxicity: “not toxic” (Caco-2; concentration not given).
`CC(=O)O[C@H]1C2=C(C(=O)C(O)=C(C(C)C)C2=O)[C@@]2(C)CCCC(C)(C)[C@@H]2[C@@H]1O` gave a GI50 of 10 to 30 µM (HL-60; cell growth).
Under growth inhibition, `Cc1cc(N2CC[C@](C#N)(C3(C)CC3)C2=O)cc(C(=O)NCc2cc(F)cc(-c3cnn(C)c3)c2)n1` is recorded as “no inhibition” (ARPE-19, MDA-MB-231; up to 2 µM).
For `CCOC(=O)C(CC)NC(=O)CN1C(=O)S/C(=C\c2ccc(OC)cc2)C1=O` (stereo not shown), cytotoxicity read “not toxic” (Caco-2; concentration not given).
`CC(=O)O[C@H]1C2=C(C(=O)C(O)=C(C(C)C)C2=O)[C@@]2(C)CCCC(C)(C)[C@@H]2[C@@H]1OC(=O)c1ccc([N+](=O)[O-])cc1` gave a GI50 of at most 5 µM (HL-60; cell growth).
`COc1cncc(-c2cc(F)cc(CNC(=O)c3cc(N4CC[C@@](C#N)(C5CC5)C4=O)cc(C)n3)c2)c1` gave a CC50 of 0.783 µM (ARPE-19; cytotoxicity).
`O=C1c2ccccc2-c2c1c1ccc([N+](=O)[O-])cc1c(=O)n2C[C@H](O)CO` has a GI50 of 0.157 µM (SF-539; cell growth; CNS cancer panel).
With `CC(=O)OC1=C(C(C)C)C(=O)C2=C(C1=O)[C@@]1(C)CCCC(C)(C)[C@@H]1[C@H](OC(C)=O)[C@H]2OC(C)=O` the GI50 was 5 to 10 µM (MCF7; cell growth).
`COCCn1ccn2cc(C(=O)NCc3ccc(F)cc3F)c(=O)c(O)c2c1=O` has a CC50 of over 250 µM (HOS; ATP level, 50% ATP reduction).
With `CCCC(=O)O[C@@H]1[C@@H](OC(C)=O)C2=C(C(=O)C(O)=C(C(C)C)C2=O)[C@@]2(C)CCCC(C)(C)[C@H]12` the GI50 was at most 5 µM (MEL1).
For `O=C1c2ccccc2-c2c1c1ccc([N+](=O)[O-])cc1c(=O)n2C[C@H](O)[C@@H](O)[C@H](O)[C@H](O)CO`, the GI50 was 0.88 µM (MCF7; cell growth; breast cancer panel).

Some of these lines once more:
`COCCN1CCn2cc(C(=O)NCc3ccc(F)cc3F)c(=O)c(O)c2C1=O` gave a CC50 of 138 ± 8.5 µM (HOS; ATP level, 50% ATP reduction).
The active concentration of `COc1ccc(Oc2ccc([C@@H](C)N(C)c3ncc4c(N)nc(N)nc4n3)cc2)cc1` is reported as 4 µM (primary mouse macrophages; cell growth).
With `COCCCn1ccn2cc(C(=O)NCc3ccc(F)cc3F)c(=O)c(O)c2c1=O` the CC50 was over 250 µM (HOS; ATP level, 50% ATP reduction).
For `N=S(=O)(c1ccccc1)N1CCCCC1` (stereo not shown), the efflux ratio was 0.59 (Caco-2; relative to: Papp B-A over Papp A-B).
`O=C(NCc1ccc(F)cc1F)c1cn2ccn(CCCCCO)c(=O)c2c(O)c1=O` has a CC50 of over 250 µM (HOS; ATP level, 50% ATP reduction).
